Experimental data of several laboratories.
Each numbered part is a random draw from the data of one study; scales do not carry over between parts. Several values in a cell are separate wells, animals, samples, runs or records.
Sequence of UniProt P53671 (whole entry, looked up): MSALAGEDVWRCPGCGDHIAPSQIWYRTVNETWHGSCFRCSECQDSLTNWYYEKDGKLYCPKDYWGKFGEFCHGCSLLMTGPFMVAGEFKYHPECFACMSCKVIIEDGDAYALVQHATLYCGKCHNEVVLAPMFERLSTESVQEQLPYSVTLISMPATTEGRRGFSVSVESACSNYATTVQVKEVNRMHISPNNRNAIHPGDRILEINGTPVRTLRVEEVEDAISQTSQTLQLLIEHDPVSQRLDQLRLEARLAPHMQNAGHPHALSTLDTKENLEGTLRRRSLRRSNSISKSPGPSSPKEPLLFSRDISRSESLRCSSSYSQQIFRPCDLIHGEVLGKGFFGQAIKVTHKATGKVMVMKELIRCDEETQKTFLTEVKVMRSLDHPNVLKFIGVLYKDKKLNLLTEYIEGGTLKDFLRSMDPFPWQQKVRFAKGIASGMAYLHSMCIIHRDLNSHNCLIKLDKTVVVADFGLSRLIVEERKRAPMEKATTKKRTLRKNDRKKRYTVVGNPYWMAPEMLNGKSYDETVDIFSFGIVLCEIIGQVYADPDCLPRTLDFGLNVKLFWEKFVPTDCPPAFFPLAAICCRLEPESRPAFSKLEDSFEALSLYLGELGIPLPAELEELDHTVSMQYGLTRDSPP
Sequence of UniProt Q15418 (whole entry, looked up): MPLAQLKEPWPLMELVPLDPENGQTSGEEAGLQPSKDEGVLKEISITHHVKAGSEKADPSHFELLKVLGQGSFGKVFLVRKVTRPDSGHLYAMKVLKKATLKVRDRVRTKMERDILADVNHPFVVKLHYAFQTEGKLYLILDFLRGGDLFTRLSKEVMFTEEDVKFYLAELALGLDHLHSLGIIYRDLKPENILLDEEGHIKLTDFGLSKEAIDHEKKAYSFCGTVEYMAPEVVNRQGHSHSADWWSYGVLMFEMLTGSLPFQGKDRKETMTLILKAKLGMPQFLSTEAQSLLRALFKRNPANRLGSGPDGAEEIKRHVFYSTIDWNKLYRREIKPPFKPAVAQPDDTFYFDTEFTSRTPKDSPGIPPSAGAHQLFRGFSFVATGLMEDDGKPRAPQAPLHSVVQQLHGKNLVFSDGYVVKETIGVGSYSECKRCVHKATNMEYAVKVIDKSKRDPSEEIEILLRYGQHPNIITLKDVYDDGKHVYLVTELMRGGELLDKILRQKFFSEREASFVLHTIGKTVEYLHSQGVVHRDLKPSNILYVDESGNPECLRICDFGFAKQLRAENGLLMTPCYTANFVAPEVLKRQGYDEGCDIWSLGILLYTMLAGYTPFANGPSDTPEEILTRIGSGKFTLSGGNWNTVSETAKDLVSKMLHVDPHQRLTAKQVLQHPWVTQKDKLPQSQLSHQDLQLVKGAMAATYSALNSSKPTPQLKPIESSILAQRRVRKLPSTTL
Sequence of UniProt P48729 (whole entry, looked up): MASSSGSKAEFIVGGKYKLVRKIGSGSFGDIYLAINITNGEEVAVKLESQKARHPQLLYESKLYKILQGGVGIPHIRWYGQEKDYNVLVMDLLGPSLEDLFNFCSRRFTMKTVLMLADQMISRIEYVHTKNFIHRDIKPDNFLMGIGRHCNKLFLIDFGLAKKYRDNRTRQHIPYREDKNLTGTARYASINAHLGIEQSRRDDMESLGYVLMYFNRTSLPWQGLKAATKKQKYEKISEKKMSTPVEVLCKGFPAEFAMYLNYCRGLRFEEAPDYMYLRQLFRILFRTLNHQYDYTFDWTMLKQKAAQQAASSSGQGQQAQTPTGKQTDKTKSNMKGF
Sequence of UniProt P46734 (whole entry, looked up): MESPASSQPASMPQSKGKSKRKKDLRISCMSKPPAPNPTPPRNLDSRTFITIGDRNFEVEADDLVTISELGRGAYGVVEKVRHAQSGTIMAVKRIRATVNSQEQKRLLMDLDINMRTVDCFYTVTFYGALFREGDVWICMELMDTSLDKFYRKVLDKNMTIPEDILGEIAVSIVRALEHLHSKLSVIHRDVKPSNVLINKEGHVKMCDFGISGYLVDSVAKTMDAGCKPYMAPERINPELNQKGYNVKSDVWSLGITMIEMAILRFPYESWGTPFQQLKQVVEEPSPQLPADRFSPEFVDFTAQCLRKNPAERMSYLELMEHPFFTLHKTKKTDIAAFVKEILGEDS
Sequence of UniProt P42336 (whole entry, unmodified, looked up): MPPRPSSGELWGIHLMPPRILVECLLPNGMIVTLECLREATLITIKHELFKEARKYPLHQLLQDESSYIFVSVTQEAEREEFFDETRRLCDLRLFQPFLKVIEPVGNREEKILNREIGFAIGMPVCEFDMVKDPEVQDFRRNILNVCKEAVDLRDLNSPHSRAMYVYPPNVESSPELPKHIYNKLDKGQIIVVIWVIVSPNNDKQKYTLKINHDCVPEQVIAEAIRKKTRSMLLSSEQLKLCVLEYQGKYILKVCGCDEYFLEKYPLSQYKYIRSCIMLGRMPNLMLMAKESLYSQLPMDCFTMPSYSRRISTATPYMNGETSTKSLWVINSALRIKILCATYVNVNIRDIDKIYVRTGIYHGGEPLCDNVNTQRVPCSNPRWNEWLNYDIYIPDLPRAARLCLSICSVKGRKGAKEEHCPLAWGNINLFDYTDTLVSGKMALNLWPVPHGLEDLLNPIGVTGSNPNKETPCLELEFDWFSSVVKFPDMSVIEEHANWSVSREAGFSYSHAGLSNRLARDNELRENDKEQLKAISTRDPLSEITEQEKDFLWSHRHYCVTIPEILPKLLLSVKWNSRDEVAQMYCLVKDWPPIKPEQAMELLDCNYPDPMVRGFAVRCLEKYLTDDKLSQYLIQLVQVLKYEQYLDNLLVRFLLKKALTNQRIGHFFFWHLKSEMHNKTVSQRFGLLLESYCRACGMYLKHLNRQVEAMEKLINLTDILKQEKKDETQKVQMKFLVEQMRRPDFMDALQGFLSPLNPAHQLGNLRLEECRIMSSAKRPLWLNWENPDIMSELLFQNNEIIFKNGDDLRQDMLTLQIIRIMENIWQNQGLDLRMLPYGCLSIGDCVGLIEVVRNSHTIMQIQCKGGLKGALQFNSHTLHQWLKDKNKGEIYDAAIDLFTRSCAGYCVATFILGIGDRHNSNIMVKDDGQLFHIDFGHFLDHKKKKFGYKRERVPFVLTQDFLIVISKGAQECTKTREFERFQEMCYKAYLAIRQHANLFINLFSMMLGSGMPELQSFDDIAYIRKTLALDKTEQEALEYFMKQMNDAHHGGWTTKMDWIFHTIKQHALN
Sequence of UniProt P25098 (whole entry, looked up): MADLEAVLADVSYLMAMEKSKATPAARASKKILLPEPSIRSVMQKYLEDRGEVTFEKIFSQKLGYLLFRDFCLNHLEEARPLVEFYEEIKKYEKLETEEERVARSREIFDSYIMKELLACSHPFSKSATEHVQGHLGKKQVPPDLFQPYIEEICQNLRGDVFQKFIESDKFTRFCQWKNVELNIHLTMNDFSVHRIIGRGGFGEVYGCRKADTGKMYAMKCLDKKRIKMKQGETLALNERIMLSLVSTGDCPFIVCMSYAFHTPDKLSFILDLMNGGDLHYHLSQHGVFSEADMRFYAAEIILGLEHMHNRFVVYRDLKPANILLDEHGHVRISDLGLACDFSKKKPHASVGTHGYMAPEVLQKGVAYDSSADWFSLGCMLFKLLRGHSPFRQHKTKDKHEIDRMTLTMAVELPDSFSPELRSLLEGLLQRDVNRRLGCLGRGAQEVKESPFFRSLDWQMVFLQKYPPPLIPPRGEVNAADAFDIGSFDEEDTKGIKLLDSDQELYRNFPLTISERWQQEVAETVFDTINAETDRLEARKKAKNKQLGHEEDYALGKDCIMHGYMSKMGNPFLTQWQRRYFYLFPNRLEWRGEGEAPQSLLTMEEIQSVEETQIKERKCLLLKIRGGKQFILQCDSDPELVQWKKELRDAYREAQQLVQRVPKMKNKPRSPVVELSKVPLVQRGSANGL
Sequence of UniProt P51957 (whole entry, looked up): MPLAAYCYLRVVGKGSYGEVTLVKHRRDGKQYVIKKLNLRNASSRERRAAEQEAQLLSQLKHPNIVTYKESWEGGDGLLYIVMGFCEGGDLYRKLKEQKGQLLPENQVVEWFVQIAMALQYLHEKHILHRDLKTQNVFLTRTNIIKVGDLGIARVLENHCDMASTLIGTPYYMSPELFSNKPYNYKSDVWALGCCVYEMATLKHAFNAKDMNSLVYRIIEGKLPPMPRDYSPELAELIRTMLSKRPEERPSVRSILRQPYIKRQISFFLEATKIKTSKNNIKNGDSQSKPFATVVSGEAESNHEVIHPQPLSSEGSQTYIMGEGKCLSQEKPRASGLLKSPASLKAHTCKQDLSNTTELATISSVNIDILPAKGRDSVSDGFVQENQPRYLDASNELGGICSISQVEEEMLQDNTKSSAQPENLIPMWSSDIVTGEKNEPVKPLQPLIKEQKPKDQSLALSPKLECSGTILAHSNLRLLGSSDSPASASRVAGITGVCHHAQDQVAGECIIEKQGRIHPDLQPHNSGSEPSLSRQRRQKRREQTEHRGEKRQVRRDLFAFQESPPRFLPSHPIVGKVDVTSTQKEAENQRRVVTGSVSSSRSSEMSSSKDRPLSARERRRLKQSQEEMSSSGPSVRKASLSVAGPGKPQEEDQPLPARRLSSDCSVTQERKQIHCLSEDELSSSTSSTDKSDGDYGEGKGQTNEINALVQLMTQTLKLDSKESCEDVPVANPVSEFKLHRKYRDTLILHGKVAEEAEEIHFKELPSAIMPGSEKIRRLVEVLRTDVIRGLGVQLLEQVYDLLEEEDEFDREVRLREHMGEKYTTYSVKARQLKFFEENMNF

Set 1
Structure (SMILES): CCCOc1ccc([C@@H]2[C@@H](C(=O)O)[C@H](c3ccc4c(c3)OCO4)CN2CC(=O)Nc2c(CC)cccc2CC)cc1
Concentration: 1 µM
Endpoint: remaining binding
STK25 (Homo sapiens, UniProt O00506); cell-free assay, competition with immobilised ligand: 100%
Tyrosine-protein kinase ABL1, phosphorylated (ABL1, Homo sapiens, UniProt P00519, E255K); binding, competition with immobilised ligand: 82%
CSNK1A1 (Homo sapiens, UniProt P48729); cell-free assay, competition with immobilised ligand: 73%
CAMKK2 (Homo sapiens, UniProt Q96RR4); cell-free assay, competition with immobilised ligand: 84%
Tyrosine-protein kinase ABL1, phosphorylated (ABL1, Homo sapiens, UniProt P00519, F317I); binding: 83%
NEK4 (Homo sapiens, UniProt P51957); cell-free assay, competition with immobilised ligand: 72%
CSNK1G1 (Homo sapiens, UniProt Q9HCP0); cell-free assay, competition with immobilised ligand: 97%
MELK (Homo sapiens, UniProt Q14680); cell-free assay, competition with immobilised ligand: 84%
Ribosomal protein S6 kinase alpha-1, N-terminal kinase domain (RPS6KA1, Homo sapiens, UniProt Q15418); cell-free assay, competition with immobilised ligand: 100%
MAP2K3 (Homo sapiens, UniProt P46734); cell-free assay, competition with immobilised ligand: 82%
GRK2 (Homo sapiens, UniProt P25098); cell-free assay, competition with immobilised ligand: 89%
Tyrosine-protein kinase ABL1, phosphorylated (ABL1, Homo sapiens, UniProt P00519, Q252H); cell-free assay, competition with immobilised ligand: 99%
PIK3CA (Homo sapiens, UniProt P42336, E542K); cell-free assay, competition with immobilised ligand: 81%
FLT3 (Homo sapiens, UniProt P36888, D835H); cell-free assay, competition with immobilised ligand: 100%
LIM domain kinase 2 (LIMK2, Homo sapiens, UniProt P53671); cell-free assay, competition with immobilised ligand: 64%

Set 2
Species: human
Sample: microsomes or S9
Concentration: 2 µM
Time: 0.5 h
Endpoint: remaining compound
O=C(O)C[C@]1(C(=O)NCc2ccccc2)CC(/C=C/c2ccccc2)=NO1: > 100%
CCOC(=O)Cn1nc(C)c(NC(=O)Cn2nc(C)c(Br)c2C)c1C: 88.4%
CCN1CCCC1CNC(=O)c1n[nH]c2c1CCC2 (centres unmarked): 86.1%
Cn1cnc2cc(N3CC(=O)C(c4nc(-c5ccccc5)cs4)=C3N)ccc21: 79.5%
Cc1noc(C2CCCN2C(=O)c2ccnc3c2nnn3C)n1 (centres unmarked): > 100%
Cc1cc(C)c(C)c(OCCCN2CCOCC2)c1: 93.2%
O=C(Nc1ncc(Cl)cc1Cl)c1cc2ncccn2n1: 78.9%
CN1CCN(c2nc(Nc3ccc(F)cc3)nc(Nc3ccc(F)cc3)n2)CC1: > 100%
Cc1ccc2[nH]cc(CCNC(=O)Nc3ccc(Cl)c(Cl)c3)c2c1: 41.9%
CC(C)CNc1oc(/C=C/c2cccs2)nc1C#N: 0.355%
CC(C)n1c(=O)ccc2cnc(Nc3ccc(N4CCN(C)CC4)cc3)nc21: 82.7%

Set 3
Cell line: A-375
Concentration: 100 µM
Time: 18 h
Endpoint: viability
C[C@H]1COc2c(C3(N)CC3)c(F)cc3c(=O)c(C(=O)O)cn1c23: 61.8%
CC(=O)OC/C=C(C)/C=C/C=C(C)/C=C/C1=C(C)CCCC1(C)C: 79.8%
O=C1c2cccc3c2[C@H](CCC3)CN1[C@@H]1CN2CCC1CC2: 57.1%
COc1ccc2c(c1)c(CC(=O)O)c(C)n2C(=O)c1ccc(Cl)cc1: 99.1%
Cc1cccc(C)c1OCC(=O)N[C@@H](Cc1ccccc1)[C@@H](O)C[C@H](Cc1ccccc1)NC(=O)[C@H](C(C)C)N1CCCNC1=O: 26.6%
COC(=O)C1=C(C)NC(C)=C(C(=O)OCCN(C)Cc2ccccc2)C1c1cccc([N+](=O)[O-])c1 (centres unmarked): 20.2%
CC(=O)[C@H]1CC[C@H]2[C@@H]3C[C@H](C)C4=CC(=O)CC[C@]4(C)[C@H]3[C@@H](O)C[C@]12C: 65%
Cn1c([N+](=O)[O-])cnc1COC(N)=O: 108%

Single results of other studies
c1ccc2c(-c3nn4c(-c5ccncc5)nnc4s3)c[nH]c2c1 — remaining activity (α-galactosidase (human, wild type); healthy dermal fibroblasts; 0.5 µM, unit not given; reference: DMSO): 1.58 and 1.45 and 1.26 and 1.32 and 1.61 and 1.46
